Assay results pooled from the literature.
Parts stem from different laboratories: compare values within a part only. ± gives the spread as reported.

Set 1 — organism: SARS-CoV-2 Wuhan spike VSV pseudovirus; read-out: pseudovirus entry; concentration: 10 µM
SMILES	inhibition
O=C(NCCc1ccncc1)C(F)(F)F	58%
CC(c1cccs1)N(C)C(=O)c1ccc(OC2CCN(Cc3ccccn3)CC2)cc1 (stereo not drawn)	79%
COc1ccc(CCNC(=O)Cn2ncc(Br)c(Br)c2=O)cc1	88%
CCN(CC(=O)Nc1cc(Cl)ccc1C)c1ncnc2c1oc1ccccc12	70%
CCOC(=O)N1CCN(C2CCCN(C(=O)c3cc(C)nc(C)n3)C2)CC1 (stereo not drawn)	68%
C=CCNC1=C2C[C@@H](C)C[C@H](OC)[C@H](O)[C@@H](C)/C=C(\C)[C@H](OC(N)=O)[C@@H](OC)/C=C\C=C(/C)C(=O)NC(=CC1=O)C2=O	96%
CC(C)CN1CC(C(=O)NCCS(=O)(=O)N2CCCC2)CC1=O (stereo not drawn)	95%
CCc1c(C)c(C#N)c2[nH]c3ccccc3n2c1=O	83%
CC1Oc2ccc(Nc3nccc(C(F)(F)F)n3)cc2NC1=O (stereo not drawn)	82%
CCc1n[nH]c(SCC(=O)NC(C)CN2CCc3ccccc3C2)n1 (stereo not drawn)	100%
COC1=C2C[C@@H](C)C[C@H](OC)[C@H](O)[C@@H](C)/C=C(\C)[C@H](OC(N)=O)[C@@H](OC)/C=C\C=C(/C)C(=O)NC(=CC1=O)C2=O	77%
O=S(=O)(c1ccc(-c2nnc(C3CCC3)o2)o1)N1CCN(C2CCCCC2)CC1	79%
CCC(CC)C(=O)N1C[C@@H](CO)[C@H](c2nc(COC)no2)C1	83%
O=c1c(Cl)c(Cl)cnn1Cc1ccccc1Br	54%
O=C(c1ccc(-n2c(-c3ccccc3)nc3cccnc32)cc1)N1CCN(c2ccccn2)CC1	62%

Further values, each from its own experiment
rep papain-like protease: Replicase polyprotein 1ab, papain-like protease (rep, Severe acute respiratory syndrome coronavirus 2, UniProt P0DTD1)
rep nsp14: Replicase polyprotein 1ab, nsp14 (rep, Severe acute respiratory syndrome coronavirus 2, UniProt P0DTD1)
rep nsp12 RdRp: Replicase polyprotein 1ab, nsp12 RdRp (rep, Severe acute respiratory syndrome coronavirus 2, UniProt P0DTD1)
Matrix protein 2 S31N: Matrix protein 2 (Influenza A virus, UniProt P0DOF5, S31N)
Substance	tested on	test	system	conditions	how to read	measurement	value
CCCc1ccc(OCC(=O)N(Cc2nc(-c3cccnc3)no2)C(C)C)cc1	rep papain-like protease	–	–	concentration not given, C111S mutant	baseline: positive control	activity	31.2%
CC(C)=CCNc1ncnc2c1ncn2[C@@H]1O[C@H](CO)[C@@H](O)[C@H]1O	SARS-CoV-2	infectious virus yield	Vero C1008, Omicron BA.1	48 h	–	EC50	~400 nM
C[S+](CC[C@H](N)C(=O)[O-])C[C@H]1O[C@@H](n2cnc3c(N)ncnc32)[C@H](O)[C@@H]1O (stereo partly drawn)	rep nsp14	thermal shift	–	250 µM	–	ΔTm	1.1 °C
O=C(O)CCc1cc(C(=O)c2ccc(OC3CCCC3)cc2O)ccc1OCc1ccc2c(=O)[nH]oc2c1	rep nsp12 RdRp	binding, biolayer interferometry	–	concentration not given	–	BLI response	0.14 nm
CNC(=O)[C@H](Cc1c[nH]c2ccccc12)NC(=O)[C@@H](CC(=O)NO)CC(C)C	rep papain-like protease	–	–	concentration not given, C111S mutant	baseline: positive control	activity	20.4%
SLVAVTAHQSTIEEQAKTFLDKFN	SARS-CoV-2 spike RBD	peptide spot array	peptide	concentration not given	baseline: wild-type ACE2 peptide	relative binding	3.73
NC12CC3CC(CC(C3)O1)C2	Matrix protein 2 S31N	–	–	concentration not given, pH 5.5, cell-based	–	inhibition	0%
N#C[C@@]1(n2ccc(N)nc2=O)O[C@H](CO)[C@@H](O)[C@H]1O	SARS-CoV-2 Delta	viral replication	Calu-3	–	–	EC90	4900 ± 4100 nM
SRVAVTAAQSTIEEQAKTFLDKFN	SARS-CoV-2 spike RBD	peptide spot array	peptide	concentration not given	baseline: wild-type ACE2 peptide	relative binding	3.67
CC(=N)NC12C3CCC4C3C3C(CCC31)C42.Cl	Matrix protein 2 S31N	–	–	concentration not given, pH 5.5, cell-based	–	inhibition	0%
Nc1ncnc2c1ncn2[C@@H]1O[C@H](CSCC[C@H](N)C(=O)O)[C@@H](O)[C@H]1O	rep nsp14	thermal shift	–	125 µM	–	ΔTm	9.2 °C
CCC(CC)[C@H](NC(C)=O)[C@@H]1[C@H](O)[C@@H](C(=O)O)C[C@H]1N=C(N)N	neuraminidase (Influenza B virus, UniProt C0LT34, N294S)	–	–	–	–	IC50	16.7 ± 3.8 nM
CC(C)(C)CC(C)(C)c1cc(Cc2cc(C(C)(C)CC(C)(C)C)cc(-n3nc4ccccc4n3)c2O)c(O)c(-n2nc3ccccc3n2)c1	rep nsp12 RdRp	binding, biolayer interferometry	–	concentration not given	–	BLI response	0.01 nm
CCC(CC)COC(=O)[C@H](C)N[P@](=O)(OC[C@H]1O[C@@](C#N)(c2ccc3c(N)ncnn23)[C@H](O)[C@@H]1O)Oc1ccccc1	SARS-CoV-2	viral replication	Calu-3, Beta	–	–	EC50	90 ± 20 nM
COc1nc(N)nc2c1ncn2[C@@H]1O[C@H](CO)[C@@H](O)[C@@H]1O	SARS-CoV-2	cytopathic effect	Vero C1008, Omicron BA.1	48 h	–	IC100	4.12 ± 0.15 µM

Repeated from above (set 1):
SMILES	inhibition
CCC(CC)C(=O)N1C[C@@H](CO)[C@H](c2nc(COC)no2)C1	83%
O=c1c(Cl)c(Cl)cnn1Cc1ccccc1Br	54%
